Measured values pooled from the literature.
Protocols differ between the studies behind these lines.

SMILES | test | system | setting | how to read | Cmax
Cl.[2H]C([2H])([2H])CC(=O)c1cnc(NC(=O)C2CC2)cc1Nc1cccc(-c2ncn(C([2H])([2H])[2H])n2)c1OC | geometric mean | human | oral, 20 mg once daily, day 1, fasted, liquid, multiple dose |  | 175 ng/mL
CCn1cc(C(=O)N2CCOCC2)c(=O)c2cc(NC3Cc4ccccc4C3)cnc21 |  | human, fed | oral suspension, 1200 mg/day twice daily, day 1, arithmetic mean |  | 1320 ng/mL
C=CCn1c(=O)c2cnc(Nc3ccc(N4CCN(C)CC4)cc3)nc2n1-c1cccc(C(C)(C)O)n1 |  | human | oral, 200 mg once daily, monotherapy lead-in, -5 days | geometric mean | 678 nM
O=C(O)CCC(=O)O.[2H]C([2H])([2H])Oc1cc(C)c2[nH]ccc2c1CN1CC[C@@H](C2CC2)C[C@H]1c1ccc(C(=O)O)cc1 |  | human, plasma | 50 mg twice daily, day 1, multiple ascending dose, geometric mean |  | 1000 ng/mL
CCN1CCN(Cc2ccc(Nc3ncc(F)c(-c4cc(F)c5nc6n(c5c4)[C@H](C)CCC6)n3)nc2)CC1 |  | human, Phase Ib patients, plasma | 300 mg, single dose, mean, added: fulvestrant |  | 163 ng/mL
COc1cc(N2CCC(N3CCN(C)CC3)CC2)ccc1Nc1ncnc(Nc2ccccc2S(=O)(=O)C(C)C)n1 |  | human, plasma | oral, 325 mg, day 1 |  | 650 ng/mL
C[C@@H]1CCO[C@H]2Cn3cc(C(=O)NCc4ccc(F)cc4F)c(=O)c(O)c3C(=O)N12 |  | human paediatric patients, weight sample B to under sample C kg, plasma | oral, 25 mg dispersible tablet, steady state, geometric mean, population PK post-hoc, N 22 |  | 5590 ng/mL
COc1ncc(-c2nc3c(n2C(C)C)[C@H](c2ccc(Cl)cc2)N(c2cc(Cl)cn(C)c2=O)C3=O)c(OC)n1 | LC-MS/MS, noncompartmental | human, plasma | oral, 200 mg, C1D8, high-dose, geometric mean |  | 1160 ng/mL
CCOc1c([C@H](C)n2nc(C)c3c(N)ncnc32)cc(Cl)c(F)c1[C@@H]1CNC(=O)C1 |  | human, all cohorts, plasma | oral, 30 mg, day 15 |  | 2720 nM
CNC(=O)c1ccc(-c2cnc3ncc(Cc4ccc5ncccc5c4)n3n2)cc1F |  | human severe hepatic impairment NCI | oral, 200 mg single dose, mean |  | 950 ng/mL

Repeated from above:
SMILES | test | system | setting | how to read | Cmax
COc1cc(N2CCC(N3CCN(C)CC3)CC2)ccc1Nc1ncnc(Nc2ccccc2S(=O)(=O)C(C)C)n1 |  | human, plasma | oral, 325 mg, day 1 |  | 650 ng/mL
CCn1cc(C(=O)N2CCOCC2)c(=O)c2cc(NC3Cc4ccccc4C3)cnc21 |  | human, fed | oral suspension, 1200 mg/day twice daily, day 1, arithmetic mean |  | 1320 ng/mL
